Results from different studies.
A part holds a random share of what one study measured. Substitutions count along the parent as printed.

Sample 1
Target: Interferon regulatory factor 7, full length, phosphomimetic (IRF7, Homo sapiens, UniProt Q92985, residues 1-503, S101K/S471D/S472D/S475D/S476D/S477D/S483D/S484D/S487D)
Technique: protein-binding microarray
Molecule type: double-stranded DNA, one strand shown
Sample: in vitro
Tested at: 250 nM
Notes: 60-bp whole probe
With: salmon DNA 0.4 mg/ml
Relative to: random background probes
Reading: higher = stronger binding
Shared flanks, not repeated: GCCTAGCAC … GTCTTGATTCGCTTGACGCTGCTG
Target sequence (chain): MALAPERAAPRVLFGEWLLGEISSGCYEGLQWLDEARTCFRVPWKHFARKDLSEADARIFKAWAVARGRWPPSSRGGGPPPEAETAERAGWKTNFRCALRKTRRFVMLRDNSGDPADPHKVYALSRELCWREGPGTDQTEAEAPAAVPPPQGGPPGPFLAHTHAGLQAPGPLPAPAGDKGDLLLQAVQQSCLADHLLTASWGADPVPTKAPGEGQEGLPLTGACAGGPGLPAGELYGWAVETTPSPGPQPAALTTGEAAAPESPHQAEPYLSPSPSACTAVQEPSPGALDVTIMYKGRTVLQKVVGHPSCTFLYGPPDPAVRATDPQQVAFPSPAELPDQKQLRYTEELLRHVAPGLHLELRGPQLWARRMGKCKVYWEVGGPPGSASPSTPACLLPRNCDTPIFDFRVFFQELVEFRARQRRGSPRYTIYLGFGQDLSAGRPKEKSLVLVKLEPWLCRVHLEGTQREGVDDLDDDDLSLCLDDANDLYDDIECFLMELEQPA
`GGCTGTTTGGTTCTTATCCTGTGCTAG` gave a log fluorescence of -0.579 z-score.
`GACGGACGGGGTTTCGGGACGTGCTAG` has a log fluorescence of 1.56 z-score.
The log fluorescence of `TTAGGTCTCGATTTCGGTTAGTGCTAG` is reported as 6.24 z-score.
For `TTAGGACTGGGTTTCGGCTAGTGCTAG`, the log fluorescence was 1.36 z-score.
`AACGATATCGGGTTTCGAGACGTGCTA` has a log fluorescence of 2.86 z-score.
The log fluorescence of `GATGATATCAGTTTCGAGACGTGCTAG` is reported as 3.71 z-score.
For `TTAGTTTTCCTTCTCCTTTAGTGCTAG`, the log fluorescence was 3.46 z-score.
`TCATTTCTTTCAAATGAAACTGTGCTA` has a log fluorescence of 1.92 z-score.
With `TTGGGTCTCCTTATCCTTTAGTGCTAG` the log fluorescence was 0.146 z-score.
`TGAGATTTCAGTTTCGATTAGTGCTAG` gave a log fluorescence of 8.85 z-score.
`ATAGGACTGGGTTTCGGTTAGTGCTAG` gave a log fluorescence of 6.58 z-score.

Sample 2
Target: ABI1, truncated, D143A, DHFR fusion (Arabidopsis thaliana)
Technique: DHFR PCA, deep sequencing
Sample: yeast
Notes: methotrexate growth selection, single substitutions
With: (+)-ABA 58 µM
Relative to: wild-type fitted maximum
Reading: higher = stronger binding
Starting sequence: PYL1, truncated, DHFR fusion (Arabidopsis thaliana); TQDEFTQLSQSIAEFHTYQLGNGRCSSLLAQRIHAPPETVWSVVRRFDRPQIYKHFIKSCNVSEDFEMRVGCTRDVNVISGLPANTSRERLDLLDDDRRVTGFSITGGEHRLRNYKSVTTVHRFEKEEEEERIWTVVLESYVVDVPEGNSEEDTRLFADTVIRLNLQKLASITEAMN
`G102K`: “relative binding score” 39.1%.
For `C60Q`, “relative binding score” read -6.46%.
`Q31F` — result for “relative binding score”: 32.4%.
`N149C`: “relative binding score” 41.6%.
`V78C` — result for “relative binding score”: 84.5%.
`Q19Y`: “relative binding score” 82.6%.
Under “relative binding score”, `R24G` is recorded as 56.2%.
For `S59A`, “relative binding score” read 80.9%.
For `T106N`, “relative binding score” read 47.6%.
`V76H`: “relative binding score” -6.2%.

Sample 3
Target: CCNE1, cyclin fold, Cln2 fusion (human)
Technique: yeast growth competition, sequencing
Sample: yeast
Notes: strong parent motif
Relative to: not given
Reading: higher = stronger binding
Starting sequence: SCAPER docking peptide (human); SNARRSLNFGGST
For `SNARRSLNFGGIT [S12I]`, “normalised enrichment score” read 1.3.
Under “normalised enrichment score”, `SCARRSLNFGGST [N2C]` is recorded as 0.403.
`SNARRSLNFGGSF [T13F]` — result for “normalised enrichment score”: 1.17.
For `SNARHSLNFGGST [R5H]`, “normalised enrichment score” read 0.0213.
Under “normalised enrichment score”, `SNARRSKNFGGST [L7K]` is recorded as 0.569.
Under “normalised enrichment score”, `SNERRSLNFGGST [A3E]` is recorded as 0.498.
`VNARRSLNFGGST [S1V]` — result for “normalised enrichment score”: 0.731.
`SNAMRSLNFGGST [R4M]`: “normalised enrichment score” -0.306.
`SNARRSLNFGYST [G11Y]`: “normalised enrichment score” 0.689.
`SNATRSLNFGGST [R4T]` — result for “normalised enrichment score”: 0.61.
`SNARRSLNFGGET [S12E]`: “normalised enrichment score” 1.96.
`SNARRSLNFGGRT [S12R]`: “normalised enrichment score” -0.731.
Under “normalised enrichment score”, `SNARRSLNFNGST [G10N]` is recorded as 0.204.
`SNLRRSLNFGGST [A3L]` — result for “normalised enrichment score”: 0.266.
`SNYRRSLNFGGST [A3Y]`: “normalised enrichment score” 0.429.
For `SNARQSLNFGGST [R5Q]`, “normalised enrichment score” read 0.448.

Sample 4
Target: Histone acetyltransferase KAT6A, both winged helices, GST fusion (KAT6A, Homo sapiens, UniProt Q92794, residues 1-181)
Technique: protein binding microarray
Molecule type: double-stranded DNA, one strand shown
Sample: in vitro
Tested at: not given
Notes: 8-mer, flanks averaged, mean of 2 arrays, mostly near background
Relative to: not given
Reading: higher = stronger binding
Residues (chain): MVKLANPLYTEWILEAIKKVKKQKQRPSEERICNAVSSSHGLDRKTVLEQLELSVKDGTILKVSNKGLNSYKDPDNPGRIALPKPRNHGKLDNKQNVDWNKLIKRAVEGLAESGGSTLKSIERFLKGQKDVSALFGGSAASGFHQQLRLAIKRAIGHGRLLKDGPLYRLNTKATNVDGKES
`ACATATTC` gave an E-score of -0.13.
With `AGACGACA` the E-score was -0.0131.
For `AAGGCTGG`, the E-score was -0.267.
`AAAATTCG` has an E-score of -0.0349.
For `GCCGAGGC`, the E-score was 0.21.
`CATAATCA` gave an E-score of -0.0187.
`CGCCCCTA` has an E-score of 0.106.
The E-score of `GATATTTA` is reported as -0.0591.
`CTTCTCGC` gave an E-score of 0.108.
The E-score of `ACTCCCAA` is reported as -0.261.
`ACAATCCA` has an E-score of -0.13.
For `ACTCAGGG`, the E-score was -0.178.
For `AACACCCT`, the E-score was -0.0916.
For `CTTGATTA`, the E-score was -0.15.
With `AGATGTCG` the E-score was 0.0593.
For `AAAGAAAC`, the E-score was -0.00971.
`ATACTTGG` has an E-score of -0.292.
For `AGACTGCT`, the E-score was -0.199.
For `CACACAGG`, the E-score was -0.218.

Sample 5
Target: RING finger protein unkempt homolog, zinc fingers 1-6, GST-SBP tag (UNK, Homo sapiens, UniProt Q9C0B0, residues 30-357)
UniProt Q9C0B0, sequence (30-357, looked up): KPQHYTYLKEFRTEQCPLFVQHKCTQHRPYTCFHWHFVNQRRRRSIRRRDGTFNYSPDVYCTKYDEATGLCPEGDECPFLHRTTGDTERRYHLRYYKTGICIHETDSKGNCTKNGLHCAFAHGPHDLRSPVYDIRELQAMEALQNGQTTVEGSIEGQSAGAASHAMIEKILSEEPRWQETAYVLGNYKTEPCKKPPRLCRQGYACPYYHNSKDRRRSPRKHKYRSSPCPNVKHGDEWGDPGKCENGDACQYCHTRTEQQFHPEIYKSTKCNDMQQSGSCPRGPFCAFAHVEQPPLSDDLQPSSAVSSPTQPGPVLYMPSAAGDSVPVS
Technique: RNA Bind-n-Seq
Molecule type: RNA
Sample: in vitro
Tested at: not given
Notes: RNA with constant flanks, human and mouse sites, ends assumed
Relative to: input RNA pool
Reading: higher = stronger binding
`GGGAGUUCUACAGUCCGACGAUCGAAGCAAAUGUCCAUUUCCAAAGCAGCUGGCAUAUCAUCAGUACCACGGCUUUAUUCUUCUAUAGUAAGUCUCCCCUCUUUACUGGGGAGAAAAAAAAUUCUCACUGGAGAAACCCUUAGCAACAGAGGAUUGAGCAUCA` gave a bound/input enrichment of 3.52 ratio.
For `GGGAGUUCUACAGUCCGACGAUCGAAUGGAAGAAUAUGGGUUAAGGCAAAAACCAUCCAGCAGACUUUAAUUUUGGCAAACAUUUUAGAAGCUUGUGAACACAUGACGUCAGAUCAAAGAAAACAGAUCUUCUCCAGAUUGGCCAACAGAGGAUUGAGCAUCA`, the bound/input enrichment was 0.286 ratio.
`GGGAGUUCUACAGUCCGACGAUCUGUCUUGAUGACACUACAGUAAAGUUUGAAAUAUGGGAUACAGCUGGUCAAGAACGAUACCAUAGCCUAGCACCAAUGUACUACAGAGGAGCACAAGCAGCCAUAGUUGUAUAUGAUAUCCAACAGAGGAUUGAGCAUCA` has a bound/input enrichment of 2 ratio.
The bound/input enrichment of `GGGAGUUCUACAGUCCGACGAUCUCUGUCAGUGAGGCUCAGGAGAAGAGAAACUCACGCCUGAGAGACUACAGAAGUCUGAUCGAGAAAGAUGUCAACAGAACAGAUCGAACGAACAAGUUUUAUGAAGGCCAAGAUAACCCACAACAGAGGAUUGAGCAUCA` is reported as 0.125 ratio.
For `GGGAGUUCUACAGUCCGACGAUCGCAUGGCUUGGGAAACGUCUGAGUGCUGAAAACCCACCCAGCUUUGUUCUUCAGUCACAACCUGCAGCCUGUCGUUAAUUAUGGUCUCUGCAAGUAGAUUUCAGCCUGGAUGGUGGGGGGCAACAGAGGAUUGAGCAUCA`, the bound/input enrichment was 0.104 ratio.
`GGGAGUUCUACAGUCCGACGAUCGAUAUGAAACAUUGGCCCUUUAUGGUGGUGAAUGAUGCUGGCAGGCCCAAGGUCCAAGUAGAAUACAAGGGAGAGACCAAAAGCUUCUAUCCAGAGGAGGUGUCUUCUAUGGUUCUGACACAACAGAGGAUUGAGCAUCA` has a bound/input enrichment of 0.288 ratio.
For `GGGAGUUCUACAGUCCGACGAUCGUUUCUGUUCUGUUUUUCAUUUCUAGGAAAAUACACCUUUAAUGUCAUAUUUUCUAAUCUAAAUUCUUGUACCAUCUUCUUUGGAAACGAUUAAAGUACUACUCAUUUUAUGCUUGACUCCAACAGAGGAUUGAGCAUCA`, the bound/input enrichment was 1.2 ratio.
`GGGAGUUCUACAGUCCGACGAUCGGAAUUGAAAACUGGCACCCCAUCUCUUUGAAACAUCUGGUAAUUUGAAUUCUAGUGCUCAUUAUUCAUUAUUGUUUGUUUUCAUUGUGCUGAUUUUUGGUGAUCAAGCCUCAGUCCCCUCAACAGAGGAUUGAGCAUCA` has a bound/input enrichment of 0.155 ratio.

Excerpt of the above (sample 3):
`VNARRSLNFGGST [S1V]` — result for “normalised enrichment score”: 0.731.
`SNAMRSLNFGGST [R4M]`: “normalised enrichment score” -0.306.
`SNARRSLNFGYST [G11Y]`: “normalised enrichment score” 0.689.
`SNATRSLNFGGST [R4T]` — result for “normalised enrichment score”: 0.61.
`SNARRSLNFGGET [S12E]`: “normalised enrichment score” 1.96.
`SNARRSLNFGGRT [S12R]`: “normalised enrichment score” -0.731.
Under “normalised enrichment score”, `SNARRSLNFNGST [G10N]` is recorded as 0.204.
`SNLRRSLNFGGST [A3L]` — result for “normalised enrichment score”: 0.266.
`SNYRRSLNFGGST [A3Y]`: “normalised enrichment score” 0.429.
For `SNARQSLNFGGST [R5Q]`, “normalised enrichment score” read 0.448.
